Measured values gathered from unrelated publications.
Numbered parts are unrelated; each lists some results of a single study. Changes are numbered by the printed parent chain.

Series 1
Target: Ras GTPase-activating protein-binding protein 1, full length (G3BP1, Homo sapiens, UniProt Q13283)
UniProt Q13283, sequence (whole entry, looked up): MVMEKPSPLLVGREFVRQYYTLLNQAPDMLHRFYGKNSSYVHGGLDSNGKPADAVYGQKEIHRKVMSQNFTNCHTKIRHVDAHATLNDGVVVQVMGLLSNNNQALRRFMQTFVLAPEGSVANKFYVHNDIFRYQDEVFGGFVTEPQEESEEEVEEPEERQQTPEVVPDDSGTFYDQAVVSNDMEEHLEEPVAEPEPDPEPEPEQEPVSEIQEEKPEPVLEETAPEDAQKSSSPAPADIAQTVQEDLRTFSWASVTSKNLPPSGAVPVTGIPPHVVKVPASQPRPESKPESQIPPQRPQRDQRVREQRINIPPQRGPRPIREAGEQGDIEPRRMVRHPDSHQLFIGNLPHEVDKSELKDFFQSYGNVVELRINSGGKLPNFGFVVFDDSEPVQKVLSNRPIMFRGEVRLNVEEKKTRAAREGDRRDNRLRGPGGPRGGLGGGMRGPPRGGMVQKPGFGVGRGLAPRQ
Method: RNA Bind-n-Seq
Form: RNA
Medium: in vitro
Concentration: 200 nM
Notes: whole 134-nt RNA, ends assumed
Together with: 150 mM LiCl
Baseline: input library
Direction: higher = stronger binding
Endpoint: log2 enrichment
All molecules: 7-deaza-guanosine replaces G
Oligonucleotide = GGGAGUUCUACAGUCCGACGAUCUAACUUUGGAGGAGGAUCUGAUGGAUAUGGCAGUGGACGUGGAUUUGGGGAUGGCUAUAAUGGGUAUGGAGGAGGACCUGGAGGUGGCAAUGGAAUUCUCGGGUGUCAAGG; value = -0.0946
Oligonucleotide = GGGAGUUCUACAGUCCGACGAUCAGUCCUGUGCUACACAUCGUAUGUACCGAAUCGGGGAGGGGAAAGGGGAAAAAGGGGAAAGUAUUAUGUUACGCCGUUCGGAUCUGCACUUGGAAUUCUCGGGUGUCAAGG; value = 0.504
Oligonucleotide = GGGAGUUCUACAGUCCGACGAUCUGGCCCUGGUGGCAUGCGGGGAGGAAGAGGUGGCCUCAUGGAUCGUGGUGGUCCCGGUGGAAUGUUCAGAGGUGGCAGUGGUGGAGACAGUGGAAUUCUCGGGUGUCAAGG; value = -0.154
Oligonucleotide = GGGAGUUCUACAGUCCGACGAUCCAAGUCCUGUGCUACACAUCGUAUGUACCGAAUCGGGAAAGGGAGGGUUUUUGGGAAAGUAUUAUGUUACGCCGUUCGGAUCUGCACUUCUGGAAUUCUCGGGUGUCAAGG; value = -0.344
Oligonucleotide = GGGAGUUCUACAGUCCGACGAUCAAGUCCUGUGCUACACAUCGUAUGUACCGAAUCAAACCCAAACCCCCAAAUUUAAAAAAGUAUUAUGUUACGCCGUUCGGAUCUGCACUUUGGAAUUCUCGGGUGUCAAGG; value = 1.12
Oligonucleotide = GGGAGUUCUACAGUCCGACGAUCCAAGUCCUGUGCUACACAUCGUAUGUACCGAAUCGGGAGGGUUUUUGGGAAAGGGAAAGUAUUAUGUUACGCCGUUCGGAUCUGCACUUCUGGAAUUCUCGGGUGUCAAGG; value = 0.372
Oligonucleotide = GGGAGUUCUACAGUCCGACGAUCCCUGUGCUACACAUCGUAUGUACCGAAUCGGGGUUUUUGGGGUUUGGGGUUUUUUUGGGGAAAGUAUUAUGUUACGCCGUUCGGAUCUGCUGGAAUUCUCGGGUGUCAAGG; value = 0.626
Oligonucleotide = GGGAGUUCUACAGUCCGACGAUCCCUCAAGUCCUGUGCUACACAUCGUAUGUACCGAAUCGGUGGGGUGGGUGGGAAAGUAUUAUGUUACGCCGUUCGGAUCUGCACUUCCAGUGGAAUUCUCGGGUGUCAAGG; value = 0.11
Oligonucleotide = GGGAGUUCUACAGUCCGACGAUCUGGGAGGUGGAUUUUGUUUAUUUUUUUAGCUCAUUUCCAGGGGUGGGAAUUUUUUUUGAAUAUGUGUCAUGAAUAAAGUUGUUUUUGAAAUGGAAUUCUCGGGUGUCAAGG; value = -0.502
Oligonucleotide = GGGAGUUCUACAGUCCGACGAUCAAGUCCUGUGCUACACAUCGUAUGUACCGAAUCGGCCCCCGGGCCCCCGGCCCCCGGAAAGUAUUAUGUUACGCCGUUCGGAUCUGCACUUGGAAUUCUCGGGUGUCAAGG; value = -0.502
Oligonucleotide = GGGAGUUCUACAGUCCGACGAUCCACAGACAACACGCACCCACACAGACACAGAGGGAAGGGGUUGGGAUGGGGACAGGGUGCACAGCAGGGCGGGGUGGGACCCCAGCCCCUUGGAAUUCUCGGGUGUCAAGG; value = 0.969

Series 2
Target: RNA binding protein fox-1 homolog 2, RRM domain, GST-SBP tag (RBFOX2, Homo sapiens, UniProt O43251-10, residues 100-194)
Method: RNA Bind-n-Seq
Form: RNA
Medium: in vitro
Concentration: 365 nM
Notes: natural RNA segment, single round, ends assumed
Baseline: no-protein control
Direction: higher = stronger binding
Endpoint: RBNS enrichment (R)
Construct (chain): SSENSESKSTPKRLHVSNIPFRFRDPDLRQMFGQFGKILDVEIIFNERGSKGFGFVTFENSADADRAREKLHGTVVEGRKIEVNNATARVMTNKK
Oligonucleotide = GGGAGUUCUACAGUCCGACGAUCAAAAAGUACAGCUGCUUGGAUGGAGUUUCUCUCAUCAGAAUAGAAAUAUGCUAGGUGGUCUUCAAGACCUUUUUGAACCUACAGAUUCUAAACCUUAGAGGAAGCCAGAAUGGAAUUCUCGGGUGCCAA; value = 0.618
Oligonucleotide = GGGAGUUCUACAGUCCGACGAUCAUCCCUCAGGGCAUAGAGUCCUUGCCACCACCUGUCCCCAGAUGCCAGUGUGUGGCACCCCUCCCCCCCCAACUUCCAUUCCUGAUCUUAGGCAAGUUCUUGGAGUCUGCUGGAAUUCUCGGGUGCCAA; value = 0.396
Oligonucleotide = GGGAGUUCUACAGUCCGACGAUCUUUUUGUAUGCUGUGAUAAAAGAGAAAUGAAAAGUGCCAGUCACUGUGUGGUGUCUAGGAAAAUCAUAUAUAUUUUUUUCUCCAAGAAAUAAAUUCAUCCUGGACAUUGGUGGAAUUCUCGGGUGCCAA; value = 0.513
Oligonucleotide = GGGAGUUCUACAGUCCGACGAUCGUCUAGGGCACACCACCCCCAGCUGCUCACACACAGACCACAUAUUCCUUCUGGGAAGGCCAGCAUCAUCCUGAAGAUGACCUGUGGGGUUGGUCCUUGAUGGCUGUCCCUGGAAUUCUCGGGUGCCAA; value = 0.708
Oligonucleotide = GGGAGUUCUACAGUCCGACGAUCGUAGUGGCAGAGGACUGAGGGUACCUGCACAGUUUGAUUCUUUUCCACGUGUAAGUCUCCAUUGCAGAAUUGUCGUGCUUUGAGAAAACACCUGAGGCAGUGUGGGAGUUUGGAAUUCUCGGGUGCCAA; value = 0.483
Oligonucleotide = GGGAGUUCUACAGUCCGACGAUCCAUAAGAAUGCUGUUUGCUGCAGUUCUGUGUCCUGUGCUUGGAUGCUUUUUUAUAAGAGUUGUCAUUGUUGGAAAUUCUUAAAUAAAACUGAUUUAAAUAAUAUGUGUCUUGGAAUUCUCGGGUGCCAA; value = 15.4
Oligonucleotide = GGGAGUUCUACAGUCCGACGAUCGAAAAUAUUCAUGCUUGCCAUCUGUUCAUUUCUAAAUUUAUAUUCAUAAAGUUACAGUUUGAUACAGGAAUUAUUAGGAGUAAUUCUUUUCUGUUUCUGUUUAUAAUGAAUGGAAUUCUCGGGUGCCAA; value = 1.09
Oligonucleotide = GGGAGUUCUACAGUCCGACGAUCUGAAAUCCAAGCAAUACACAGGAAAUUUAAGUAGAAUAAAAAUUGCAGCCCAUUUUUGAAAUGUCAGCAUGUGCUGUGUUCAGUUCAGGUUUUUGUUGUUUGUUUUGUUAUGGAAUUCUCGGGUGCCAA; value = 0.96
Oligonucleotide = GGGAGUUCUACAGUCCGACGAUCGAGAUGUGUAAUUCUUUUAUGGAGUUUUUAAAAAGAAUUUUCAUAUUGUUUUUCUAACAUGGCUUCAUUAAACGUUUAAGUAUUUUAAAAAUAUGUAAUAUUUGGACCAGUGGAAUUCUCGGGUGCCAA; value = 0.562
Oligonucleotide = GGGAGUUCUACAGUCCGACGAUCUCAAAAUUUCCUUGAGACUCUUUAGCAUUCAUACUUUGGGGUUAAAGGAGAUUCCUCAGACUCAUCCAGCCCUUGGGUGCUGACCAGCAGAGUCACUAGUGGAUGCUGAAUGGAAUUCUCGGGUGCCAA; value = 0.272
Oligonucleotide = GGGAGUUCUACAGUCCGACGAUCCAUAUUUAUUUAUUUGUGUUCACGUCAGUUUGUUUCAUAUCUUAGCUUUCUUUCACCCAGCUUUGUUGUUUUAAUUAACUGCCCAUUAGAGAGACUGUACUUUUUUUCUAUGGAAUUCUCGGGUGCCAA; value = 0.37
Oligonucleotide = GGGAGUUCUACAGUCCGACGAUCUCCUGUGUUCUCACCACUGUCCCUCUAGCCCUGACUGCAAGUAUGCAGUGCUGGAUGACGGGCAGUGUGCAAGGCAUCCCAGCAUUCAUGGUCCCUUGUUAGUGUUGUGCUGGAAUUCUCGGGUGCCAA; value = 0.531

Series 3
Target: Interferon regulatory factor 7, full length, phosphomimetic (IRF7, Homo sapiens, UniProt Q92985, residues 1-503, S101K/S471D/S472D/S475D/S476D/S477D/S483D/S484D/S487D)
UniProt Q92985, sequence (whole entry, unmodified, looked up): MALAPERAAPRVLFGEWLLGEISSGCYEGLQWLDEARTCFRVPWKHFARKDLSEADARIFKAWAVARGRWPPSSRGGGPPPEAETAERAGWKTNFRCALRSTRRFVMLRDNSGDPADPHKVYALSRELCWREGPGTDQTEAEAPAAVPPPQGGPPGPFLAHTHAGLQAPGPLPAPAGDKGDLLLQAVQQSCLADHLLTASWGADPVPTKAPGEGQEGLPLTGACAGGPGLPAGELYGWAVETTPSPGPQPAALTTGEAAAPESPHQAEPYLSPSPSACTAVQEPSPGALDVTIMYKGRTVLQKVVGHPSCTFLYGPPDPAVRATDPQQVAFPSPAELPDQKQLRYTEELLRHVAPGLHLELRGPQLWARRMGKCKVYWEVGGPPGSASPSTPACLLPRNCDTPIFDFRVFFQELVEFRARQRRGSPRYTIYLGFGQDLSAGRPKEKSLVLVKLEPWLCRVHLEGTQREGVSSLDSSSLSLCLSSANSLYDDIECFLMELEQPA
Method: protein-binding microarray
Form: double-stranded DNA, one strand shown
Medium: in vitro
Concentration: 250 nM
Notes: 60-bp whole probe
Together with: salmon DNA 0.4 mg/ml
Baseline: random background probes
Direction: higher = stronger binding
Endpoint: log fluorescence
All sequences stand within: GCCTAGCAC … GTCTTGATTCGCTTGACGCTGCTG
Oligonucleotide = TTAGGTTTCGGTTTGGGTTAGTGCTAG; value = 14.3 z-score
Oligonucleotide = GACGATTTCGGGTATCGAGGCGTGCTA; value = 0.531 z-score
Oligonucleotide = TTTGAACTGAGTTTCGATTAGTGCTAG; value = 8.01 z-score
Oligonucleotide = TTAGATATCACTATCGATTAGTGCTAG; value = 0.204 z-score
Oligonucleotide = GACGAACTGACACTGGAGACGTGCTAG; value = -0.392 z-score
Oligonucleotide = TCACACATCTCACTCTAACTGTGCTAG; value = 0.101 z-score
Oligonucleotide = TCAACTTTGAATTAGAAACTGTGCTAG; value = 0.746 z-score
Oligonucleotide = TCAAGTTTATACCTTAGACTGTGCTAG; value = 0.167 z-score
Oligonucleotide = GACGGTTTCGGGTTTCGGTACGTGCTA; value = 12.2 z-score
Oligonucleotide = ATAGGTTTCCTTTCCCTTTAGTGCTAG; value = 4.73 z-score
Oligonucleotide = TCAATTCTCAGCCCTGCGACTGTGCTA; value = 0.0608 z-score
Oligonucleotide = GAACATACTGATTTCCACTTGTGCTAG; value = 0.693 z-score
Oligonucleotide = TCAACTTCCCAATTGTCACTGTGCTAG; value = 1.24 z-score

Series 4
Target: CCNA2, cyclin fold, Cln2 fusion (human)
Method: yeast growth competition, sequencing
Medium: yeast
Notes: strong parent motif
Baseline: not given
Direction: higher = stronger binding
Endpoint: normalised enrichment score
Parent: WEE1 docking peptide (human); HKTFRKLRLFDTP
Change = D11F; value = 1.46
Change = F10G; value = 0.538
Change = F10W; value = 1.68
Change = H1I; value = 2.1
Change = F4C; value = 1.09
Change = F4H; value = 1.78
Change = L9Q; value = 2.82
Change = D11N; value = 0.44
Change = L7K; value = 1.31
Change = R5P; value = 0.296
Change = R5I; value = 2.16
Change = T3P; value = 2.12
Change = T3L; value = 1.68
Change = T12Q; value = 1.72
Change = P13S; value = 1.28

Series 5
Target: Histone acetyltransferase KAT6A, both winged helices, GST fusion (KAT6A, Homo sapiens, UniProt Q92794, residues 1-181)
Method: protein binding microarray
Form: double-stranded DNA, one strand shown
Medium: in vitro
Concentration: not given
Notes: 8-mer, flanks averaged, mean of 2 arrays, mostly near background
Baseline: not given
Direction: higher = stronger binding
Endpoint: E-score
Construct (chain): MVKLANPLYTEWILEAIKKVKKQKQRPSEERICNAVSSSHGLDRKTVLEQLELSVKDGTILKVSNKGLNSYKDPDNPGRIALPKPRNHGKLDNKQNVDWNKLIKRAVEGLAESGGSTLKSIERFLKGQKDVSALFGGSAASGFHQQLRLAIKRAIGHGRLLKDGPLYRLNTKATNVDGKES
Oligonucleotide = AACCGTAA; value = 0.283
Oligonucleotide = GACGTAGC; value = 0.106
Oligonucleotide = AAGGCATC; value = -0.125
Oligonucleotide = CGAACTCA; value = -0.0791
Oligonucleotide = CGCCAGAC; value = 0.109
Oligonucleotide = GATTCATA; value = 0.0508
Oligonucleotide = CGACCACG; value = 0.107
Oligonucleotide = TGCCACCA; value = -0.157
Oligonucleotide = ATAGGGAC; value = -0.139
Oligonucleotide = ATGCGCAT; value = 0.315
Oligonucleotide = AATGCCGT; value = 0.332
Oligonucleotide = CCATCCGG; value = -0.00114
Oligonucleotide = AAAAATCT; value = -0.0552
Oligonucleotide = CTCGGCAG; value = 0.103
Oligonucleotide = ATGATTCC; value = 0.114
Oligonucleotide = CAGTTATA; value = -0.0821
Oligonucleotide = CCCCAAAG; value = -0.193
Oligonucleotide = GTCCGAGA; value = 0.128
Oligonucleotide = CTACGTAC; value = 0.00748

A few entries again (series 1):
Oligonucleotide = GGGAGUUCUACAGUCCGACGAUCCAAGUCCUGUGCUACACAUCGUAUGUACCGAAUCGGGAAAGGGAGGGUUUUUGGGAAAGUAUUAUGUUACGCCGUUCGGAUCUGCACUUCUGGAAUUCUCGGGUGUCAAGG; value = -0.344
Oligonucleotide = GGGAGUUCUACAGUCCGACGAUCAAGUCCUGUGCUACACAUCGUAUGUACCGAAUCAAACCCAAACCCCCAAAUUUAAAAAAGUAUUAUGUUACGCCGUUCGGAUCUGCACUUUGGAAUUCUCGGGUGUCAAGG; value = 1.12
Oligonucleotide = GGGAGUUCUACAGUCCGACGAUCCAAGUCCUGUGCUACACAUCGUAUGUACCGAAUCGGGAGGGUUUUUGGGAAAGGGAAAGUAUUAUGUUACGCCGUUCGGAUCUGCACUUCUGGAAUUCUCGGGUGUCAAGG; value = 0.372
Oligonucleotide = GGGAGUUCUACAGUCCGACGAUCCCUGUGCUACACAUCGUAUGUACCGAAUCGGGGUUUUUGGGGUUUGGGGUUUUUUUGGGGAAAGUAUUAUGUUACGCCGUUCGGAUCUGCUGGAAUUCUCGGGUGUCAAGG; value = 0.626
Oligonucleotide = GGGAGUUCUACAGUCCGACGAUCCCUCAAGUCCUGUGCUACACAUCGUAUGUACCGAAUCGGUGGGGUGGGUGGGAAAGUAUUAUGUUACGCCGUUCGGAUCUGCACUUCCAGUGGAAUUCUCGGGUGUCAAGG; value = 0.11
